Assay results pooled from the literature.
Lines come from different studies, so protocols differ. pEC50: −log10 of the molar value.
HTR1F: 5-hydroxytryptamine receptor 1F (HTR1F, Homo sapiens, UniProt P30939)
Sequence of UniProt P30939 (whole entry, looked up): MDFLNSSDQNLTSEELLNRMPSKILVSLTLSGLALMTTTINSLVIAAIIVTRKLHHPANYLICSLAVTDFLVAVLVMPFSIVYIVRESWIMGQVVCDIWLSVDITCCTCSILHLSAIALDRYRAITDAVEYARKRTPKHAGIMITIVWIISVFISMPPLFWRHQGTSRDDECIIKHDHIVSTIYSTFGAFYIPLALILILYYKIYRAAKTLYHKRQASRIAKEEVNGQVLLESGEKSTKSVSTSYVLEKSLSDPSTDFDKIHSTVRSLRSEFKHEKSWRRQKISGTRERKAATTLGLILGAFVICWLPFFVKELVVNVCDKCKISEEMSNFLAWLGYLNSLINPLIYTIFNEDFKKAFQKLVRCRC
MTNR1B: Melatonin receptor type 1B (MTNR1B, Homo sapiens, UniProt P49286)
Sequence of UniProt P49286 (whole entry, looked up): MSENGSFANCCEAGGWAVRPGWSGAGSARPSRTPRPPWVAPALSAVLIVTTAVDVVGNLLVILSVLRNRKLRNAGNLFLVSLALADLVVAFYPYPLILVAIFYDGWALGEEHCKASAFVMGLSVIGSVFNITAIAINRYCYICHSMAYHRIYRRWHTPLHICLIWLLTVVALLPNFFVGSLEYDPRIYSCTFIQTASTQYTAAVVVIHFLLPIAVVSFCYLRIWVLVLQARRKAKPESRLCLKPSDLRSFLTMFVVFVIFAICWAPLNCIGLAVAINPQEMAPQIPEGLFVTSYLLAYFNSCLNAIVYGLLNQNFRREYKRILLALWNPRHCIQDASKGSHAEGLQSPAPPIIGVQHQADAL
MTNR1A: Melatonin receptor type 1A (MTNR1A, Homo sapiens, UniProt P48039)
Sequence of UniProt P48039 (whole entry, looked up): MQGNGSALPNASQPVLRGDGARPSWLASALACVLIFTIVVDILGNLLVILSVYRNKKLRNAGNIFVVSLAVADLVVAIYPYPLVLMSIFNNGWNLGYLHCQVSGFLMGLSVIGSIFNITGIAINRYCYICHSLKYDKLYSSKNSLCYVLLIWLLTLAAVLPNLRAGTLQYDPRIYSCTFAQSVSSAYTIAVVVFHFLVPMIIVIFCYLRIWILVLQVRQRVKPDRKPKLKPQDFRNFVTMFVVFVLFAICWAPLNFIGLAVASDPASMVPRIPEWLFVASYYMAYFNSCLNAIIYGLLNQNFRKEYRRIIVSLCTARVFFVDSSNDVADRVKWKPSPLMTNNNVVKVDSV
AVPR2: Vasopressin V2 receptor (AVPR2, Homo sapiens, UniProt P30518)
Sequence of UniProt P0DMS8 (whole entry, unmodified, looked up): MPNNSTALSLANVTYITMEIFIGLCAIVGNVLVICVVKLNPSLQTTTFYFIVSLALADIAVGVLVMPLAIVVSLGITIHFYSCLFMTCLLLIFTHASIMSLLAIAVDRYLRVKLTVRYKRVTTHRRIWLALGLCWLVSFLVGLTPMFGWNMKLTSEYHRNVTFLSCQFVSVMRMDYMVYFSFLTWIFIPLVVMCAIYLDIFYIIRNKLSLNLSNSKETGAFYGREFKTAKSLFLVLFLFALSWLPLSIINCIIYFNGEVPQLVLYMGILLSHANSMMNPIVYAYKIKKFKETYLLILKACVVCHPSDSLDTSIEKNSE
Sequence of UniProt P30518 (whole entry, looked up): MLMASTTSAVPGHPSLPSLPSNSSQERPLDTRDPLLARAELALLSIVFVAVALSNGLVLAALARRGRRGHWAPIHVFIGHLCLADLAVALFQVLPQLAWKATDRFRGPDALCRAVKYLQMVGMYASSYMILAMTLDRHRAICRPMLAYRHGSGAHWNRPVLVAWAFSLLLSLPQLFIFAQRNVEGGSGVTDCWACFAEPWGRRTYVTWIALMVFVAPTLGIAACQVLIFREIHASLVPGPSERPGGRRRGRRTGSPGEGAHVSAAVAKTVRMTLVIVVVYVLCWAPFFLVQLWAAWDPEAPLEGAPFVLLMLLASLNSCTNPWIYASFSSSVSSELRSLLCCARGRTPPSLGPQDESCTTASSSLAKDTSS
Sequence of UniProt P10276 (whole entry, looked up): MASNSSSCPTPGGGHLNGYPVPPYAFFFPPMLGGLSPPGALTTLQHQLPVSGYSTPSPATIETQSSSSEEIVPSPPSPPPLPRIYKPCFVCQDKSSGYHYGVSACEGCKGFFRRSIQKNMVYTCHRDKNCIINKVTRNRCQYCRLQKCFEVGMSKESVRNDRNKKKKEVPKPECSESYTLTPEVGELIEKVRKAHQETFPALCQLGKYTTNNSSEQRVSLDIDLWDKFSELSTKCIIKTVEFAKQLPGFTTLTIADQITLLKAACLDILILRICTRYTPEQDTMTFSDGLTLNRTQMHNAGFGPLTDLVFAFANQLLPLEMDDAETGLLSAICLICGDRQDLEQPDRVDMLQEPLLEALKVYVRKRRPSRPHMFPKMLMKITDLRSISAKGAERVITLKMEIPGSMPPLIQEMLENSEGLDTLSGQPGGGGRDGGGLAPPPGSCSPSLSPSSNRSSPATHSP
Sequence of UniProt Q01959 (whole entry, looked up): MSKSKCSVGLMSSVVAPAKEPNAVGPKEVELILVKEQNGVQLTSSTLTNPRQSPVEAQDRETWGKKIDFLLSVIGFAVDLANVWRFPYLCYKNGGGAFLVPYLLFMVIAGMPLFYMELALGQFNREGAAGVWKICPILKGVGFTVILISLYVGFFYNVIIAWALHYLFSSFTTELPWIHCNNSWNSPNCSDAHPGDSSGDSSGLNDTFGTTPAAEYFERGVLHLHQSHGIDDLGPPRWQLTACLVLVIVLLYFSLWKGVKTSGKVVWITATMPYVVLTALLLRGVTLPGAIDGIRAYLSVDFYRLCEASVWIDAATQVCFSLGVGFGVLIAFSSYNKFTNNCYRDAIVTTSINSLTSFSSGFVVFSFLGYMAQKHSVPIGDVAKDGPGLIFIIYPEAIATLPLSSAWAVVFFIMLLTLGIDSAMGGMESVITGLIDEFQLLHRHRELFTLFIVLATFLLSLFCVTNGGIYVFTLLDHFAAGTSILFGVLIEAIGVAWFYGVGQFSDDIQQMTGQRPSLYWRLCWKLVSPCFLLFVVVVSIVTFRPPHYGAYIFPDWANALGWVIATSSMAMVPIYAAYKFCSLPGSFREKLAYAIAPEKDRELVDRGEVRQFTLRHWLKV
Sequence of UniProt Q9NQS5 (whole entry, looked up): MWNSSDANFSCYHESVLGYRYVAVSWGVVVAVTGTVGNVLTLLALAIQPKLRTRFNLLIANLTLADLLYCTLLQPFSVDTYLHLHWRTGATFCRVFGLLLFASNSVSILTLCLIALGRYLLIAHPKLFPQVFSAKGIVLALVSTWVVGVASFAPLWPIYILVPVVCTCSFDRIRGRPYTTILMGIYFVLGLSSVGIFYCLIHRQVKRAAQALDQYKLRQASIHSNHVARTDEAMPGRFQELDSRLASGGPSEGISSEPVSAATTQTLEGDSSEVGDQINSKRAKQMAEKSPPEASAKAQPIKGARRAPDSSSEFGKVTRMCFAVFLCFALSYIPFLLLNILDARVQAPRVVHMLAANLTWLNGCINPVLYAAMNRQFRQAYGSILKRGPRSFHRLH

| SMILES | target | assay | setting | pEC50 |
| --- | --- | --- | --- | --- |
| CN1CCN(C2=Nc3cc(Cl)ccc3Nc3ccccc32)CC1 | HTR1F | G protein activation, agonist, BRET | – | 6.58 |
| Oc1cc(NCCc2ccccc2)nc(O)n1 | G-protein coupled receptor 84 (GPR84, Homo sapiens, UniProt Q9NQS5) | cAMP, agonist | – | 6.70 |
| COc1ccc2ncn(CCNC(C)=O)c2c1 | MTNR1B | GTPγS binding, agonist, radiometric | cell membranes | 6.12 |
| CC(C)=CCNc1ncnc2c1ncn2[C@@H]1O[C@H](CO)[C@@H](O)[C@H]1O | Adenosine receptor A3 (ADORA3, Homo sapiens, UniProt P0DMS8, I253N) | G protein activation, agonist | – | 7.35 |
| COc1cccc2c1CCN(C(=O)c1nc[nH]n1)C2 | MTNR1A | cAMP, agonist, luciferase | – | 7.53 |
| O=C1CC2(CCCC2)CC(=O)N1CCCCN1CCN(c2ncccn2)CC1 | HTR1F | G protein activation, agonist, BRET | – | 5.46 |
| COC(=O)c1csc(CSc2nnc(C(C)(C)C)[nH]2)c1 | MTNR1A | cAMP, agonist, luciferase | – | 7.64 |
| CC1=NN(/C(=N/c2nnc(C)s2)Nc2ccc(C)c(C)c2)C(c2ccc(-c3ccccc3)cc2)S1 (stereo not shown) | AVPR2 | cAMP, positive allosteric modulator | – | < 4.30 |
| COc1ccc2c(c1)N(Cc1ccc3c(c1)nnn3C)CCO2 | MTNR1A | cAMP, agonist, luciferase | – | 5.10 |
| O=S1(=O)c2cccc3cccc(c23)N1CCCN1CCN(c2ccc(F)cc2)CC1 | HTR1F | G protein activation, agonist, BRET | – | 6.41 |
| CN(C)c1ncnc2c1ncn2[C@@H]1O[C@H](CO)[C@@H](O)[C@H]1O | Adenosine receptor A3 (ADORA3, Homo sapiens, UniProt P0DMS8, V169L) | G protein activation, agonist | – | 5.64 |
| N#C[C@@]12C[C@@H]1[C@@H](n1cnc3c(Nc4ccccc4)nc(I)nc31)[C@H](O)[C@@H]2O | Sodium-dependent dopamine transporter (SLC6A3, Homo sapiens, UniProt Q01959) | ligand displacement, radioligand | – | 5.66 |
| COc1ccc2c(c1)N(Cc1ccnc(OC)n1)CCO2 | MTNR1A | cAMP, agonist, luciferase | – | 6.87 |
| CC1=NN(/C(=N\c2cccc(C)c2)Nc2nnc(C)s2)C(c2ccc(C)cc2)S1 (stereo not shown) | AVPR2 | cAMP, positive allosteric modulator | – | 4.51 |
| COc1cc(I)c2[nH]cc(CCNC(C)=O)c2c1 | MTNR1A | GTPγS binding, agonist, radiometric | cell membranes | 6.33 |
| CN(CCc1cnccn1)c1ccc(Br)c(C(F)(F)F)n1 | MTNR1A | cAMP, agonist, luciferase | – | 6.32 |
| O=C(NCCc1cccc2ccccc12)C1CCC1 | MTNR1B | β-arrestin recruitment, agonist | – | 6.54 |
| CC1CC1CC(=O)N(Cc1ccccc1)c1ccncc1 (stereo not shown) | MTNR1A | cAMP, agonist, luciferase | – | 7.05 |
| Cc1ccc(C2=CCC(C)(C)c3cc(C(/C=C/c4ccc(C(=O)O)cc4)=N/O)ccc32)cc1 | Retinoic acid receptor alpha (RARA, Homo sapiens, UniProt P10276) | reporter gene, antagonist, luciferase | – | < 5.30 |
